{"data": "Results collected from several papers", "note": "A part holds a random share of what one study measured.", "sequence of UniProt Q16620 (whole entry, looked up)": "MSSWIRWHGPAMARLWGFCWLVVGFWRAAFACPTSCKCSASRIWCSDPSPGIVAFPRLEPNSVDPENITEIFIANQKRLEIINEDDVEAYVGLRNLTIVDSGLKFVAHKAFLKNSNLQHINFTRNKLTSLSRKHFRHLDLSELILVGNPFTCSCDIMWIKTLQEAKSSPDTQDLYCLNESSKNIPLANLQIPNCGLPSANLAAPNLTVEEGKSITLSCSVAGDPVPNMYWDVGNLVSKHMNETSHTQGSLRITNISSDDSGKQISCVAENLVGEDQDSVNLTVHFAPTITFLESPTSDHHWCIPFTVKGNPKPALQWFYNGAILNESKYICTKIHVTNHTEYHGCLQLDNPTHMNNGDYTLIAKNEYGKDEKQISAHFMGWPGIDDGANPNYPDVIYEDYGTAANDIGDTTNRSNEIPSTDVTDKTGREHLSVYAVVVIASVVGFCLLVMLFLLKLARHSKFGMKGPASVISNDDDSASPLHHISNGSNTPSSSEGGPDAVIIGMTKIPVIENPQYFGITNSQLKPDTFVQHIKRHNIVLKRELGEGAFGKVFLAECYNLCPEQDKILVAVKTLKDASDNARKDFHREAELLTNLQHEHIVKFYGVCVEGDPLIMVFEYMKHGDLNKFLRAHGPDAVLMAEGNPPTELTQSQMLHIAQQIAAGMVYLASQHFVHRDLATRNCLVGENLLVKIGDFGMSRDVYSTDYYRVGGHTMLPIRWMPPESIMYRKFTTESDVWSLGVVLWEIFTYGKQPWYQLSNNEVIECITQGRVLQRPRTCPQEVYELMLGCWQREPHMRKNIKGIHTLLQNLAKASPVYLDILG"}
{"data": "Series 1", "target": "Prothrombin, mature alpha-thrombin (F2, Homo sapiens, UniProt P00734)", "technique": "aptamer microarray, sandwich", "molecule type": "DNA with 2'F-ANA", "medium": "in vitro", "concentration": "200 nM", "setting": "whole 15-mer aptamer, many near background", "together with": "Cy3 exosite-II aptamer, 400 nM", "direction": "higher = stronger binding", "oligonucleotide": "GGTTGGTGTGGTTGG"}
{"Modification": "2'F-ANA at 1 2 4 7 10 13 15", "mean fluorescence intensity": "47.5 a.u."}
{"Modification": "2'F-ANA at 2 4 5 7 8 9 11 13 14", "mean fluorescence intensity": "43.8 a.u."}
{"Modification": "2'F-ANA at 2 3 5 7 8 9 11 14 15", "mean fluorescence intensity": "52.7 a.u."}
{"Modification": "2'F-ANA at 3 4 7 9 11 12 15", "mean fluorescence intensity": "751 a.u."}
{"Modification": "2'F-ANA at 3 4 5 9 11 14", "mean fluorescence intensity": "48.9 a.u."}
{"Modification": "2'F-ANA at 4 7 11 12 14", "mean fluorescence intensity": "142 a.u."}
{"Modification": "2'F-ANA at 1 5 8 10 12 13 15", "mean fluorescence intensity": "50.7 a.u."}
{"Modification": "2'F-ANA at 1 4 8 9 10 11 12 13 14 15", "mean fluorescence intensity": "50.9 a.u."}
{"data": "Series 2", "target": "Ras GTPase-activating protein-binding protein 1, full length (G3BP1, Homo sapiens, UniProt Q13283)", "technique": "RNA Bind-n-Seq", "molecule type": "RNA", "medium": "in vitro", "concentration": "200 nM", "setting": "whole 134-nt RNA, ends assumed", "together with": "150 mM KCl", "relative to": "input library", "direction": "higher = stronger binding", "all sequences stand within": "GGGAGUUCUACAGUCCGACGAUC … UGGAAUUCUCGGGUGUCAAGG", "sequence of UniProt Q13283 (whole entry, looked up)": "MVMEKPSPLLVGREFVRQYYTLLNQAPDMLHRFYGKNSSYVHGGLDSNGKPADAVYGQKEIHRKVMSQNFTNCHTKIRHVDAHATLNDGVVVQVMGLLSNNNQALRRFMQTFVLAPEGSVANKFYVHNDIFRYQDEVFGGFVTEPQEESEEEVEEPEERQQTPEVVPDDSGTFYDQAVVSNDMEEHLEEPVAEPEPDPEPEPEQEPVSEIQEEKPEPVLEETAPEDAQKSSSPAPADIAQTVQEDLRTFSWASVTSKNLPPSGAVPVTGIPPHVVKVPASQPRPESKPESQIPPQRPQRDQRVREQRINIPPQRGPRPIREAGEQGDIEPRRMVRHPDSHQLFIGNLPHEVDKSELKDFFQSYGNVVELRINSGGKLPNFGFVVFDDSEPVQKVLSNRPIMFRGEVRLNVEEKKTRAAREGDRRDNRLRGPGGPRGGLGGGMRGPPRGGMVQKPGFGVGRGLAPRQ"}
{"Oligonucleotide": "UGGGAGGUGGAUUUUGUUUAUUUUUUUAGCUCAUUUCCAGGGGUGGGAAUUUUUUUUUAAAAUGUGUCAUGAAUAAAGUUGUUUUUGAAA", "log2 enrichment": 0.0296}
{"Oligonucleotide": "ACCAUGCAGGUGGGCAUCUUUGGGAAGUGGGGCAAGGGGGGGAUAGGGAGGGGGGUAACACUUUGGGAACGGGUGGUCCCAGGUCGUUUC", "log2 enrichment": 1.02}
{"Oligonucleotide": "CAAGUCCUGUGCUACACAUCGUAUGUACCGAAUCGGUUUUUUUGGAAAAAGGUGGAAAGUAUUAUGUUACGCCGUUCGGAUCUGCACUUC", "log2 enrichment": -0.863}
{"Oligonucleotide": "CUCAAGUCCUGUGCUACACAUCGUAUGUACCGAAUCGGCCCGGGCCCGGCCCGGAAAGUAUUAUGUUACGCCGUUCGGAUCUGCACUUCC", "log2 enrichment": -0.456}
{"Oligonucleotide": "CUCAAGUCCUGUGCUACACAUCGUAUGUACCGAAUCGGGGCGGGCGGGCGGGGAAAGUAUUAUGUUACGCCGUUCGGAUCUGCACUUCCA", "log2 enrichment": 0.846}
{"Oligonucleotide": "GUCCUGUGCUACACAUCGUAUGUACCGAAUCGGAAAAAAAGGAAAAAGGAAAAAAAGGAAAGUAUUAUGUUACGCCGUUCGGAUCUGCAC", "log2 enrichment": -0.858}
{"Oligonucleotide": "GUCCUGUGCUACACAUCGUAUGUACCGAAUCGUGUGUGUGUGUGUGUGUGUGUGUGUGUAAAGUAUUAUGUUACGCCGUUCGGAUCUGCA", "log2 enrichment": 0.819}
{"Oligonucleotide": "CAAGUCCUGUGCUACACAUCGUAUGUACCGAAUCGGAAAAAAAGGAAAGGAAAGGAAAGUAUUAUGUUACGCCGUUCGGAUCUGCACUUC", "log2 enrichment": -1.28}
{"data": "Series 3", "target": "PABPC1L2, full length, GST fusion (mouse, UniProt A0ABA7IW68)", "technique": "RNAcompete", "molecule type": "RNA", "medium": "in vitro", "concentration": "20 nM", "setting": "7-mer, probes averaged, single round", "relative to": "mean of 7-mers", "direction": "higher = stronger binding", "Target sequence (chain)": "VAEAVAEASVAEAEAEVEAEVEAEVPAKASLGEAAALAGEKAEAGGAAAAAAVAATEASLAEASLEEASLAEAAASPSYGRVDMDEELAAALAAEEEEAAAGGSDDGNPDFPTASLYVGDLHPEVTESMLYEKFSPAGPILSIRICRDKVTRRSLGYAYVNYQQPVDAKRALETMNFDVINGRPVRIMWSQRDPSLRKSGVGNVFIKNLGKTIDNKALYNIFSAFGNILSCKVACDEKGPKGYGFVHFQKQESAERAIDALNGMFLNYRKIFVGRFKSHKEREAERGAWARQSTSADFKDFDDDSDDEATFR"}
{"Oligonucleotide": "GAAGGAU", "7-mer Z-score": 0.0334}
{"Oligonucleotide": "CGCGUGA", "7-mer Z-score": -0.146}
{"Oligonucleotide": "AGUCCGC", "7-mer Z-score": -0.507}
{"Oligonucleotide": "UACAAAG", "7-mer Z-score": 1.03}
{"Oligonucleotide": "CUUUGAA", "7-mer Z-score": -0.0881}
{"Oligonucleotide": "GAAAGAG", "7-mer Z-score": 1.34}
{"Oligonucleotide": "AGUCUGC", "7-mer Z-score": -0.324}
{"Oligonucleotide": "AAUCAAC", "7-mer Z-score": 0.0406}
{"data": "Further values, each from its own experiment"}
{"Structure (SMILES)": "CO[C@@H](C)c1c(Nc2ccc([C@@H](N(C)C(=O)C3CCS(=O)(=O)CC3)C(F)(F)F)cc2)cnc2cc(Cl)nn12", "target": "BDNF/NT-3 growth factors receptor (NTRK2, Homo sapiens, UniProt Q16620)", "observed": "cell-free assay", "technique": "competition with immobilised ligand", "concentration": "1 µM", "measurement": "remaining binding", "value": "100%"}
{"note": "Some of these lines once more (series 2):"}
{"Oligonucleotide": "GUCCUGUGCUACACAUCGUAUGUACCGAAUCGUGUGUGUGUGUGUGUGUGUGUGUGUGUAAAGUAUUAUGUUACGCCGUUCGGAUCUGCA", "log2 enrichment": 0.819}
{"Oligonucleotide": "ACCAUGCAGGUGGGCAUCUUUGGGAAGUGGGGCAAGGGGGGGAUAGGGAGGGGGGUAACACUUUGGGAACGGGUGGUCCCAGGUCGUUUC", "log2 enrichment": 1.02}
{"Oligonucleotide": "CUCAAGUCCUGUGCUACACAUCGUAUGUACCGAAUCGGGGCGGGCGGGCGGGGAAAGUAUUAUGUUACGCCGUUCGGAUCUGCACUUCCA", "log2 enrichment": 0.846}
{"Oligonucleotide": "CUCAAGUCCUGUGCUACACAUCGUAUGUACCGAAUCGGCCCGGGCCCGGCCCGGAAAGUAUUAUGUUACGCCGUUCGGAUCUGCACUUCC", "log2 enrichment": -0.456}
